Values quoted from earlier work that unrelated publications cite.
Numbered parts are unrelated; values within a part may stem from several laboratories.

Block 1
Organism: Cryptosporidium parvum
Technique: high-throughput screen
Concentration: concentration not given
Structure (SMILES) | activity
CCCN[C@H]1CCc2nc(N)sc2C1.Cl | inactive
CO[C@H]1/C=C/O[C@@]2(C)Oc3c(C)c(O)c4c(O)c(c(/C=N/N5CCN(C)CC5)c(O)c4c3C2=O)NC(=O)/C(C)=C\C=C\[C@H](C)[C@H](O)[C@@H](C)[C@@H](O)[C@@H](C)[C@H](OC(C)=O)[C@@H]1C | inactive
NS(=O)(=O)c1cc2c(cc1Cl)N=CNS2(=O)=O | inactive
CN(CCOc1ccc(CC2SC(=O)NC2=O)cc1)c1ccccn1 (stereo not drawn) | inactive

Further values, each from its own experiment
Structure (SMILES) | tested on | assay | test system | conditions | endpoint | result
N#CN1CC[C@H](C(=O)Nc2nc3c(s2)CN(C(=O)CN=[N+]=[N-])CC3)C1 | UCHL3 | enzyme activity |  |  | IC50 | 216 µM
CCN(CC)CCCCNc1ncc2cc(-c3cc(OC)cc(OC)c3)c(NC(=O)NC(C)(C)C)nc2n1 | c-Src | inhibitor |  |  | IC50 | 19.8 µM
Cc1nc(N2CC[C@@H](O)C2)ncc1-c1cc(C(F)(F)F)cc2[nH]ncc12 | METAP2 (human) | enzyme activity |  | Mn(II) enzyme | IC50 | 0.007 µM
COCCc1ccc(OCC(O)CNC(C)C)cc1 (stereo not drawn) |  |  | human |  | half-life | 3 to 4 h
O=C(Cc1ccccc1)Nc1nnc(N2CC[C@@H]3[C@H]2CN3c2cccnn2)s1 | GLS | biochemical |  |  | IC50 | > 30 µM
CN1CCN(c2ccc3nc(-c4c(N)c5c(F)cccc5[nH]c4=O)[nH]c3c2)CC1 | PI3-K | inhibitor |  |  | IC50 | > 10 µM
O[C@]1(C(F)(F)F)CCCC[C@H]1Nc1ccc(F)cc1 | PGR | binding, radioligand binding Eurofins-Panlabs |  |  | Ki | 4 µM
O=C1Nc2ccc(Cl)cc2[C@@](C#CC2CC2)(C(F)(F)F)O1 |  |  | human |  | clearance | 23 L/h

Some of these lines once more (further values, each from its own experiment):
Structure (SMILES) | tested on | assay | test system | conditions | endpoint | result
CN1CCN(c2ccc3nc(-c4c(N)c5c(F)cccc5[nH]c4=O)[nH]c3c2)CC1 | PI3-K | inhibitor |  |  | IC50 | > 10 µM
CCN(CC)CCCCNc1ncc2cc(-c3cc(OC)cc(OC)c3)c(NC(=O)NC(C)(C)C)nc2n1 | c-Src | inhibitor |  |  | IC50 | 19.8 µM
